Measurements from different studies.
Parts stem from different laboratories: compare values within a part only.
Chain of UniProt Q8IVH8 (whole entry, looked up): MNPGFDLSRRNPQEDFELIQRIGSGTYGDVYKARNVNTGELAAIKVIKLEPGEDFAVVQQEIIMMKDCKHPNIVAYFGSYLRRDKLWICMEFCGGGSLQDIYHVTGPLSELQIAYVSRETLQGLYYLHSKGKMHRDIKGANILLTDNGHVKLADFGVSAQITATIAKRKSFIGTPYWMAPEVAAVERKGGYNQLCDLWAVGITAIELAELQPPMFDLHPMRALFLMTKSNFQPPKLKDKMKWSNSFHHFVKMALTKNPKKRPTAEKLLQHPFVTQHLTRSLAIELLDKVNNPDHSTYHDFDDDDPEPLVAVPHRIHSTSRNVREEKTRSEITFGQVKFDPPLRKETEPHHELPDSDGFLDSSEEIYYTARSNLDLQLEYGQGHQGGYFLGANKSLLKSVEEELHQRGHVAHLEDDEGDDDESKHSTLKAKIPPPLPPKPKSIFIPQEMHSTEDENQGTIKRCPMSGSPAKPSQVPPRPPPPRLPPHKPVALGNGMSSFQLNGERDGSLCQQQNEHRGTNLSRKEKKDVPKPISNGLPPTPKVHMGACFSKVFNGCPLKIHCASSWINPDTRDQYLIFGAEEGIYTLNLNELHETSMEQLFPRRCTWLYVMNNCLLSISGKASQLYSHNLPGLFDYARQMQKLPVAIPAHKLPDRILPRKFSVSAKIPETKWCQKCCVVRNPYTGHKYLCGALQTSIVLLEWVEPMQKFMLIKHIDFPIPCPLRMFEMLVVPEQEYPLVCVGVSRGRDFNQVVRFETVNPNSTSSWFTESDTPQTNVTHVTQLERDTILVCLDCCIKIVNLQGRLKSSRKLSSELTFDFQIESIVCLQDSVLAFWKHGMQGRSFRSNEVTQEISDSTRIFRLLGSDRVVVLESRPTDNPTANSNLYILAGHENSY
Chain of UniProt P23458 (whole entry, looked up): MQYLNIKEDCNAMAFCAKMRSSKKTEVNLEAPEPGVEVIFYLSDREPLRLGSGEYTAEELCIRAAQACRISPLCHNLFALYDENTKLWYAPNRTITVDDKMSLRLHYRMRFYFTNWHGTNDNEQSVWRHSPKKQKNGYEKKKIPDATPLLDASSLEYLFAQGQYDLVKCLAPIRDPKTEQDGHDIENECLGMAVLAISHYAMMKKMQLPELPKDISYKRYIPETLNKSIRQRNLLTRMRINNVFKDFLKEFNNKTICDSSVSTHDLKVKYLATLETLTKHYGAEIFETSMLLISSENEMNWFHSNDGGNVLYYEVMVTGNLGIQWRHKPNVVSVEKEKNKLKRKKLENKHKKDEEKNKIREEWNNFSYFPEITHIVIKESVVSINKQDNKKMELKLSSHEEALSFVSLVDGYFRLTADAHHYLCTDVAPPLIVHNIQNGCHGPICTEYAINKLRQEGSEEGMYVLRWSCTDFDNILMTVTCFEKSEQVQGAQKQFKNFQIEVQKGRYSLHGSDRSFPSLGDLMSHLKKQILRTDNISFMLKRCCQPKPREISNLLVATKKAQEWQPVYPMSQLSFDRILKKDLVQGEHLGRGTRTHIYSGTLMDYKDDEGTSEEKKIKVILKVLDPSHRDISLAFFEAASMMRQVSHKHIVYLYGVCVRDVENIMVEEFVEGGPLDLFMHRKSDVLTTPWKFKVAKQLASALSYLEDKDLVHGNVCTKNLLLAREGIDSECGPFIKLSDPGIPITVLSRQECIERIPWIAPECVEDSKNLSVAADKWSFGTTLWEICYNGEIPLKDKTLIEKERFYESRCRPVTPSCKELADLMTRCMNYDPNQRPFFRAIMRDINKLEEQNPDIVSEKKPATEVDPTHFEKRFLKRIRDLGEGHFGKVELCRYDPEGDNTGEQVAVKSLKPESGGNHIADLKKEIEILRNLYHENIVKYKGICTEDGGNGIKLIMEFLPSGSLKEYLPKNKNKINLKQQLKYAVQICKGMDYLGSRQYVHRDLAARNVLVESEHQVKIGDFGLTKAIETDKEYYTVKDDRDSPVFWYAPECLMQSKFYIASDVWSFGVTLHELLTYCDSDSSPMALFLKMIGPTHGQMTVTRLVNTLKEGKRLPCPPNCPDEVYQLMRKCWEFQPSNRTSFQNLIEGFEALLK
Chain of UniProt Q9P286 (whole entry, looked up): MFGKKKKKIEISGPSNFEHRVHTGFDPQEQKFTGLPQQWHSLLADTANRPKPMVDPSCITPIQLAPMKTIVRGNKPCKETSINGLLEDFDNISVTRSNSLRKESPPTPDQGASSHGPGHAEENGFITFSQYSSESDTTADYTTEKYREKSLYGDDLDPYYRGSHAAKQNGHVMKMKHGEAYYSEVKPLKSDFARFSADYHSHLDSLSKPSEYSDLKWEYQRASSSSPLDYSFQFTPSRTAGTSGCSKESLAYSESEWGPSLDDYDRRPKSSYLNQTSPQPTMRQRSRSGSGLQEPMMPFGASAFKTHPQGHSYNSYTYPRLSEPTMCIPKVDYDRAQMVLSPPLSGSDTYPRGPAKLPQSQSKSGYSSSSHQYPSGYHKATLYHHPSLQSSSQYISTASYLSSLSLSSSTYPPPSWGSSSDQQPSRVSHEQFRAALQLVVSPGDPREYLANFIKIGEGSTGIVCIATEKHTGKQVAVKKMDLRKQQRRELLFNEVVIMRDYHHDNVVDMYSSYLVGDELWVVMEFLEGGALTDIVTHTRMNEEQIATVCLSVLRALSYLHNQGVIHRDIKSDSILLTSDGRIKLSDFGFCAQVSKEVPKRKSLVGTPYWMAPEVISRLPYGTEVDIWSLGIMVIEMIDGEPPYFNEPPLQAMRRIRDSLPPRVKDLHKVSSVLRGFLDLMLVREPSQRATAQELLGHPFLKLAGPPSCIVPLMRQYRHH
Chain of UniProt Q99755 (whole entry, looked up): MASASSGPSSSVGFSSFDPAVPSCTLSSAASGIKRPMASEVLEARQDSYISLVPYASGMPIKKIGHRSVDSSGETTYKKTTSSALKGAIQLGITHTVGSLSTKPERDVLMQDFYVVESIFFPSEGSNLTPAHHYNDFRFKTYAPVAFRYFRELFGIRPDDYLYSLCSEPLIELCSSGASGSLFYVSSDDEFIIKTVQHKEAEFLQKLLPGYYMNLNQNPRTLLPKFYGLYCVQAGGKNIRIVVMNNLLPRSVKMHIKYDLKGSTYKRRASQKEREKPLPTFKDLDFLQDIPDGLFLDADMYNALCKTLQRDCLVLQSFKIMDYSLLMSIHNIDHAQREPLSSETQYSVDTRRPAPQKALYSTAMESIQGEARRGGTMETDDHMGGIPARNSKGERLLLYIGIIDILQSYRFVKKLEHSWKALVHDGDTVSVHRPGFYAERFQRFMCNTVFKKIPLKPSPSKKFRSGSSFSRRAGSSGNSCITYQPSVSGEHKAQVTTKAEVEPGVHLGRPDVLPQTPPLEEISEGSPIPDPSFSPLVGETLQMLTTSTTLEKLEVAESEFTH
Chain of UniProt P42336 (whole entry, unmodified, looked up): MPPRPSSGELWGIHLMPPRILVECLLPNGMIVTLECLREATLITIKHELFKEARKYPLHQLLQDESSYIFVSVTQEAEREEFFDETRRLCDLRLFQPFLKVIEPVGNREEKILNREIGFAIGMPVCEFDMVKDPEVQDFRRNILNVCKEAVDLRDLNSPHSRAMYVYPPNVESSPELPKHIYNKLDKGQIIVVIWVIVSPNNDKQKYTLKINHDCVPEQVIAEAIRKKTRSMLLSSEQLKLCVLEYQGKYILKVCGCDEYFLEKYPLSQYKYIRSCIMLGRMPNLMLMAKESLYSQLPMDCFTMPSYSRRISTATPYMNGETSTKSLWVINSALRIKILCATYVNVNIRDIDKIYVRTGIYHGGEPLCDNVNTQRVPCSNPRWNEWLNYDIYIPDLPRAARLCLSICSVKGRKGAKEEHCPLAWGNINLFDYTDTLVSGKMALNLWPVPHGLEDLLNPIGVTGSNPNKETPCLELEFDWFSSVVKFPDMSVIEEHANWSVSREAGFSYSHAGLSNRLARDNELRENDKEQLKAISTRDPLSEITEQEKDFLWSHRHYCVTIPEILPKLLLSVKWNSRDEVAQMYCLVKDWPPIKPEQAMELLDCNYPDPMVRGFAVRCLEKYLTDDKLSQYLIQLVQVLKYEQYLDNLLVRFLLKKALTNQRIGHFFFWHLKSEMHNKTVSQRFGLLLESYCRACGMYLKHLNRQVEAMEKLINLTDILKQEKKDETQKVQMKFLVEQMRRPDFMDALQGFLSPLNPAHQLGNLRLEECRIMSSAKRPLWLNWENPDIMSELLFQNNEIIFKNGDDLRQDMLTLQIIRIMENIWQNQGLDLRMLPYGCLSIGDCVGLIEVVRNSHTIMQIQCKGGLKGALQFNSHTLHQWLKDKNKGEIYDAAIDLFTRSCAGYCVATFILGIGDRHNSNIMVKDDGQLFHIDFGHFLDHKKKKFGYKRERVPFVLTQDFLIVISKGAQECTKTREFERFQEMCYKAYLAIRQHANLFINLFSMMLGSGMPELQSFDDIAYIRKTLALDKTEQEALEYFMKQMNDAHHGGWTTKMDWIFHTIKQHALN

Series 1
SMILES: CC(=O)N[C@@H](Cc1c[nH]c2ccccc12)C(=O)N[C@@H](CCC(=O)C=[N+]=[N-])C(=O)OC(C)C
Dose: dose not given
Relative to: vehicle
item	host	matrix	log2 fold change
galactonate	mouse, EL4 tumour-bearing	EL4 tumour	1.06
leucine	mouse, EL4 tumour-bearing	EL4 tumour	0.428
fructose	mouse, EL4 tumour-bearing	EL4 tumour	1.75
heme	mouse, EL4 tumour-bearing	EL4 tumour	-0.0342
mesaconate	mouse, EL4 tumour	tumour	2.54
3-hydroxykynurenine	mouse, EL4 tumour-bearing	EL4 tumour	-1.94
trigonelline	mouse, EL4 tumour	tumour	0.192

Series 2
SMILES: CNC(=O)Nc1ccc2c(c1)CC[C@@]21OC(=O)N(CC(=O)N(Cc2ccc(F)cc2)[C@@H](C)C(F)(F)F)C1=O
Observed: cell-free assay
Technique: competition with immobilised ligand
Tested at: 1 µM
target	remaining binding [%]
Tyrosine-protein kinase JAK1, JH2 (JAK1, Homo sapiens, UniProt P23458)	100
Mitogen-activated protein kinase kinase kinase kinase 3 (MAP4K3, Homo sapiens, UniProt Q8IVH8)	76
Tyrosine-protein kinase SYK (SYK, Homo sapiens, UniProt P43405)	70
Phosphatidylinositol 4,5-bisphosphate 3-kinase catalytic subunit alpha isoform (PIK3CA, Homo sapiens, UniProt P42336, E545A)	91
Serine/threonine-protein kinase PAK 5 (PAK5, Homo sapiens, UniProt Q9P286)	100
Phosphatidylinositol 4-phosphate 5-kinase type-1 alpha (PIP5K1A, Homo sapiens, UniProt Q99755)	95

Series 3
Cell line: A-375
Tested at: 100 µM
Time: 36 h
SMILES	viability [%]
CC(C)[C@@H]1CC[C@@H](C)C[C@H]1O	107
CCCNC(C)C(=O)Nc1ccccc1C (stereo not shown)	109
Cc1nc(C)c(Cl)c(O)c1Cl	103
CCCCCCCCCCC[C@@H](C[C@@H]1OC(=O)[C@H]1CCCCCC)OC(=O)[C@H](CC(C)C)NC=O	11.8
O=C(O)CSCC(=O)NC1CCSC1=O (stereo not shown)	68.2
O=c1c(-c2ccc(O)cc2)coc2cc(O[C@@H]3O[C@H](CO)[C@@H](O)[C@H](O)[C@H]3O)ccc12	93.2
CC(S)C(=O)NCC(=O)O (stereo not shown)	105

Series 4
Target: Ephrin type-B receptor 2 (EPHB2, Homo sapiens, UniProt P29323)
Observed: enzyme activity
Action: inhibitor
Tested at: 0.5 µM
Relative to: control
Construct (P29323 1-1055): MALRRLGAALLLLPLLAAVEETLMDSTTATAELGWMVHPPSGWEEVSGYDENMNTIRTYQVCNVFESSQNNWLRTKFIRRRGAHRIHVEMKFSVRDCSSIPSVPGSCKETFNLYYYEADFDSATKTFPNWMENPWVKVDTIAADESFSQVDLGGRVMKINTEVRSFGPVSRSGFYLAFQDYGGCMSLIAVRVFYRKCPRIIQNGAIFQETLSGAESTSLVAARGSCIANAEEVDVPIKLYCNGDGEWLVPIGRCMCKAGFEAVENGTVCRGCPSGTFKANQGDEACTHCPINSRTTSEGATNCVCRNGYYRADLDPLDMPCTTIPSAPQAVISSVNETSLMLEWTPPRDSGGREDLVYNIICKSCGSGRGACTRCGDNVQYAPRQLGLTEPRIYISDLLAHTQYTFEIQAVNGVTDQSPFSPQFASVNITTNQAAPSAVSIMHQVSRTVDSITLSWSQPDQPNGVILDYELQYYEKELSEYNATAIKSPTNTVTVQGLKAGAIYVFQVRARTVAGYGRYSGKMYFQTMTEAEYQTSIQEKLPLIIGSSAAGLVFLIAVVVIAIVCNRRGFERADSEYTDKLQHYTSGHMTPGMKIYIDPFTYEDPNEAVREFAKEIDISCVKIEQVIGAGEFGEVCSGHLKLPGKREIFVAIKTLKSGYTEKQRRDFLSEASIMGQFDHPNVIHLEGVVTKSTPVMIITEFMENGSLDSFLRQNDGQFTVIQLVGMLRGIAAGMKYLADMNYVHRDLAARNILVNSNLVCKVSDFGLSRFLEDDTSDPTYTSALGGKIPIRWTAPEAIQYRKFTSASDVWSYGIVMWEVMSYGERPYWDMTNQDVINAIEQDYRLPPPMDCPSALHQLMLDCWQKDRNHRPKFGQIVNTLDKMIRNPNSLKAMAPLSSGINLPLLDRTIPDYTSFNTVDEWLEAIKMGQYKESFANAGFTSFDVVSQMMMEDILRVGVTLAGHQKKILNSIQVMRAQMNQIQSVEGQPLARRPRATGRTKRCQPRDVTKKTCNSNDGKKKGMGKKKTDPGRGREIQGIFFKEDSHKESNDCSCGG
SMILES	remaining activity [%]
Cc1nc(-c2ccccc2)c(-c2ccncc2)o1	99.8
Cn1sc(=O)n(Cc2ccccc2)c1=O	88.5
Nc1ccc2ncnc(NCCc3ccc(Oc4ccccc4)cc3)c2c1	97.7
O=C1NC(=O)C(c2cn(CCCn3ccnc3)c3ccccc23)=C1Nc1ccccc1	98.4
COc1ccc(OC)c2c(=S)c3ccccc3[nH]c12	94.9
CNC(=O)c1cc(Oc2ccc(NC(=O)Nc3ccc(Cl)c(C(F)(F)F)c3)cc2)ccn1	93.2
O=c1c2ccccc2[nH]c(=S)n1CCN1CCC(=C(c2ccc(F)cc2)c2ccc(F)cc2)CC1	92.1
N#CC(C#N)=C(N)/C(C#N)=C/c1ccc(O)cc1	97.1
COc1cc2nccc(Oc3ccc(NC(=S)NC(=O)c4ccccc4C)cc3)c2cc1OC	93.5
O=C(Nc1cccc(Nc2cc(Nc3cccc(C(F)(F)F)c3)ncn2)c1)C1CC1	88.6
O=C(CCCc1ccc(-c2ccccc2F)cc1)Nc1ccc(O)cc1	98.5
Nc1ncnc2n[nH]c(Nc3ccc(F)cc3)c12	91.6
Cc1ccc(Nc2nccc(N(C)c3ccc4c(C)n(C)nc4c3)n2)cc1S(N)(=O)=O	91.9
OCC(O)CCON=C1C(c2c(O)[nH]c3ccccc23)=Nc2ccccc21 (stereo not shown)	75

Some of these lines once more (series 1):
item	host	matrix	log2 fold change
galactonate	mouse, EL4 tumour-bearing	EL4 tumour	1.06
mesaconate	mouse, EL4 tumour	tumour	2.54
